Experimental data from different studies.
Compare with care: the assays were run in different laboratories. ± gives the spread as reported. Converted amounts (≈) assume the structure as drawn.

| SMILES | tested on | assay | test system | setting | scale | endpoint | value |
| --- | --- | --- | --- | --- | --- | --- | --- |
| Oc1ccc(Nc2ccnc3cc(Cl)ccc23)cc1 | Dengue virus 2 | viral replication, plaque | BHK-21 | – | – | EC90 | 31.2 ± 5.15 µM |
| CCCCCc1cc(O)c2c(c1)OC(C)(C)C1CCC(C)=CC21 (stereo not drawn) | – | – | rabbit, α-chymotrypsin glaucoma model | topical, 50 µL of 0.8% w/v, 0.5 h | reference: baseline | intraocular pressure | 64.8% |
| CCC1(CC)C2CC3CC(C2)CC1(NC)C3 | Influenza A virus | viral replication | MDCK, A/Ned/378/05 (H1N1) | – | – | EC50 | 8.7 ± 0.3 µM |
| Cc1ccc(/C=C/C(=O)O)cc1-c1cc2c(cc1C)C(C)(C)CCC2(C)C | – | RNA sequencing, measured: Emr4 mRNA | rat, brain | dose not given, 24 h, single dose | reference: vehicle | log2 fold change | 0.25 |
| c1csc(CNC23C4CCC5C4C4C(CCC42)C53)c1 | Influenza A virus | viral replication | MDCK, H3N2 A/HK/7/87 | – | – | EC50 | > 100 µM |
| CCCCCCCCC(=O)NCc1ccc(O)c(OC)c1 | mouse mAb 1-F12 | antibody binding, indirect competitive ELISA | – | added: coating antigen 4-OVA | – | IC50 | 203 ng/mL (≈ 0.69 µM) |
| CC(C)C[C@H](NC(=O)[C@H](CCCNC(=N)N)NC(=O)[C@@H](Cc1ccccc1)NC(=O)CN)C(=O)N[C@@H](CC(N)=O)C(=O)N[C@@H](CO)C(=O)N[C@@H](C)C(=O)N[C@@H](CO)C(=O)N[C@@H](CCCNC(=N)N)C(=O)N[C@H](C(=O)N[C@@H](C)C(=O)N[C@@H](Cc1c[nH]cn1)C(=O)NCC(=O)N[C@@H](Cc1ccc(O)cc1)C(N)=O)C(C)C | ATRP receptor 2 (Aplysia californica) | IP1 accumulation, agonist | – | – | reference: compound over all-L-ATRP | potency ratio | ~200 fold |
| CC(C)C1=C(OC(=O)Cc2ccccc2)C(=O)C2=C(C=C[C@H]3C(C)(C)CCC[C@]23C)C1=O | – | total antioxidant capacity, phosphomolybdenum method | – | – | – | EC50 | 412 µM |
| CC/C=C\C/C=C\C/C=C\C/C=C\C/C=C\C/C=C\CCC(=O)Nc1ccn(C2OC(CO)C(O)C2(F)F)c(=O)n1 (stereo not drawn) | MOLT-4 | NCI60 screen | – | – | – | CC50 | 93.1 µM |
| COC[C@@H](NC(C)=O)C(=O)NCc1ccc(N=[N+]=[N-])cc1 | voltage-gated sodium channel | – | CAD | 40 µM, non-irradiated at -50 mV | – | channels in slow-inactivated state | 50% |
| CC[C@H](C)[C@H](NC(=O)[C@@H](NC(=O)[C@H](CC(=O)O)NC(C)=O)[C@@H](C)O)C(=O)N[C@@H](CCCNC(=N)N)C(=O)N[C@@H](CC(C)C)C(=O)N[C@@H](CC(C)C)C(=O)N[C@@H](Cc1ccccc1)C(=O)N[C@@H](CCC(N)=O)C(=O)N[C@@H](CC(C)C)C(=O)N[C@@H](CCSC)C(=O)N[C@@H](CCCNC(=N)N)C(=O)N1CCC[C@H]1C(=O)N1CCC[C@H]1C(=O)N[C@@H](CC(N)=O)C(=O)N[C@@H](CCSC)C(=O)N[C@H](C(=O)N1CCC[C@H]1C(=O)N[C@@H](C)C(=O)N[C@H](C(=O)N[C@@H](CC(N)=O)C(=O)N[C@@H](C)C(N)=O)C(C)C)[C@@H](C)O | – | measured: HA-15 tetramer | antigen-experienced tetramer+ CD4 T cells, healthy adults, HLA-DRB1*0101 | dose not given | – | α4β7− CCR9+ cells | 0% |
| C1CC2C3C4C5CCC4C24CNCC54C13 | Influenza A virus | viral replication | MDCK, A/Ned/378/05 (H1N1) | – | – | EC50 | 50 µM |

Repeated from above:
| SMILES | tested on | assay | test system | setting | scale | endpoint | value |
| --- | --- | --- | --- | --- | --- | --- | --- |
| CCCCCc1cc(O)c2c(c1)OC(C)(C)C1CCC(C)=CC21 (stereo not drawn) | – | – | rabbit, α-chymotrypsin glaucoma model | topical, 50 µL of 0.8% w/v, 0.5 h | reference: baseline | intraocular pressure | 64.8% |
